{"data": "Experimental data collected from several papers", "note": "Each numbered part is a random draw from the data of one study; scales do not carry over between parts. Positions count from the first letter of the parent shown."}
{"data": "Block 1", "target": "CCND1, cyclin fold, Cln2 fusion (human)", "method": "yeast growth competition, sequencing", "medium": "yeast", "notes": "weak parent motif", "relative to": "not given", "direction": "higher = stronger binding", "parent": "ORC1 docking peptide (human); PRARKRLELGNLG"}
{"Variant": "R4G", "normalised enrichment score": 0.202}
{"Variant": "L12G", "normalised enrichment score": -0.301}
{"Variant": "R6K", "normalised enrichment score": -0.319}
{"Variant": "G13H", "normalised enrichment score": -0.000362}
{"Variant": "P1L", "normalised enrichment score": -0.428}
{"Variant": "L7Q", "normalised enrichment score": -0.249}
{"Variant": "P1V", "normalised enrichment score": -0.674}
{"Variant": "R6A", "normalised enrichment score": -0.119}
{"Variant": "R2W", "normalised enrichment score": 0.563}
{"Variant": "R4S", "normalised enrichment score": -0.235}
{"Variant": "G10W", "normalised enrichment score": 1.1}
{"Variant": "N11K", "normalised enrichment score": -0.221}
{"Variant": "N11Y", "normalised enrichment score": 0.599}
{"Variant": "L9H", "normalised enrichment score": -0.00333}
{"Variant": "K5T", "normalised enrichment score": -0.00319}
{"data": "Block 2", "target": "RNA binding protein fox-1 homolog 2, RRM domain, GST-SBP tag (RBFOX2, Homo sapiens, UniProt O43251-10, residues 100-194)", "method": "RNA Bind-n-Seq", "molecule type": "RNA", "medium": "in vitro", "concentration": "365 nM", "notes": "natural RNA segment, single round, ends assumed", "relative to": "no-protein control", "direction": "higher = stronger binding", "all sequences stand within": "GGGAGUUCUACAGUCCGACGAUC … UGGAAUUCUCGGGUGCCAA", "Residues (chain)": "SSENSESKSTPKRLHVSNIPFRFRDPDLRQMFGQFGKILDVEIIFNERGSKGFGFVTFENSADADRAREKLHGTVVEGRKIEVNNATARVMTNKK"}
{"Strand": "UUGCUUACUGAUGUAUCUAUUUGUACAGAUAGUGGAGAGCUAGUUGCUAAUAAUGUCUUGUUUGGGUCUCCCAAACCCUACCUCUCAACUCCCUUAAGAGUAUCACUGUU", "RBNS enrichment (R)": 0.339}
{"Strand": "UGUUAUUUUUGUAUACUAUAUCACUUAGACAACUGUGUUUCAUUUGCUGUAAUCAGUUUUUAAAAGUCAGAUGGAAAAAGCAACUGAAGUCCUAGAAAAUAGAAAAUGUA", "RBNS enrichment (R)": 0.53}
{"Strand": "UCUUUACCUACUGCACUAACAAUGGCAAGGGGGGUAUUCUUUAUAUGUUGCCUUGUUUAACUACAGUUCUUUUCAUUCCAUCACUUUAGGUGAUGGGUAAGAUUUUUGAA", "RBNS enrichment (R)": 0.4}
{"Strand": "CCUGUCACCCCACCCCAGGCCACCCUCUCCCAGAGGACGCCAUCUCCCUUACUGUUGCUGGGAGCCUCGCCCUUUGUCCCAACUGGGUAGAGCCCCCAGGUGCUGUUUGC", "RBNS enrichment (R)": 0.344}
{"Strand": "CCCUUCUGAGGCCACAGGCAGGGCAGCUUAGUUCACCGCAGUCCGUACCUUGGAUAAGGGGCCUCACUUGAACCCAUCUUGAAUACCCUUUGCCAGGUGCUUAUUUAAGU", "RBNS enrichment (R)": 0.285}
{"Strand": "CCCCCAGUUCAAGUGAUUCUUCUGCCUCGGCCUCCUGAGUAACUGGGACUACAGGCGCCUACCACCACGCCCAGCUAAGUUUUGUAUUUUUAGUAGAGUCAGGGUUUCAC", "RBNS enrichment (R)": 0.793}
{"Strand": "AGAUCAAAACCAUUCUGUAAAAUCUUUGUUGUUUAAUUAAAUGUGCCGUUAUUUACCCCUGAUGUUAUUUAUGACUAUGUGCCGAUUCCUGCUCGGGCUGUUUGCUGUUG", "RBNS enrichment (R)": 1.95}
{"Strand": "GCUCCUUUGAGAGCACCAGAAACGCUUAGGGAGACACCUGUGUUGAGGCCACACUGGGCGCGGUGCCAGAGGCCCCUGGUCAGGCCAUGCCCCUGCAGUGUCCUUCGUUC", "RBNS enrichment (R)": 0.343}
{"Strand": "AAAUGUGUUAGUCUUUGAAUGGAAAACAACUAUUUUCUCAUCAUUGGGUCAAUAUUGACUGAUCAGUAGUAGGUCUUUUACCAUUCUGGACAUAAGUCUAGGUGUAGAAA", "RBNS enrichment (R)": 0.505}
{"Strand": "GUGUAAAAAAAUUUAAACAAGUGUUAACUUUAAACAGUUCGCUACAAGUAAAUGAUUAUAAAUACUACCUUCUGGGUUAAGAAAAUUCCAUUCAAAUAACAUUCUCAUGU", "RBNS enrichment (R)": 0.45}
{"Strand": "GUGCUGCUACCUUGUAUGUUUACAUAAUGCUUUAGCCCAAGGACACAUCACCAACCCAUGGACUCGCAGACACCGGGGCUGGGUUUCUCUUUCCUCUUUUUGGAGAAAAG", "RBNS enrichment (R)": 0.215}
{"Strand": "CCAUAAAGCUUUUGUUAUAUAUUAAAUGUAAACUGAAAGGAAUGUAAACAUAUGUAUUGUUAAUUAUAAAUAUCGAUAAGUAAUAGCAUAAUAGAUGAAGAGGUCUUAUU", "RBNS enrichment (R)": 0.784}
{"data": "Block 3", "target": "Histone acetyltransferase KAT6A, both winged helices, GST fusion (KAT6A, Homo sapiens, UniProt Q92794, residues 1-181)", "method": "protein binding microarray", "molecule type": "double-stranded DNA, one strand shown", "medium": "in vitro", "concentration": "not given", "notes": "8-mer, flanks averaged, mean of 2 arrays, mostly near background", "relative to": "not given", "direction": "higher = stronger binding", "Target sequence (chain)": "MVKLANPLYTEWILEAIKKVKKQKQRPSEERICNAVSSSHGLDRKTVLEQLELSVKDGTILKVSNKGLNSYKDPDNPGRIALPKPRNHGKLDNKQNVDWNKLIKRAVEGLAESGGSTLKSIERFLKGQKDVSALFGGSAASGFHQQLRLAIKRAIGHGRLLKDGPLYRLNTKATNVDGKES"}
{"Strand": "AAGTTTCT", "E-score": -0.125}
{"Strand": "AAAATTGA", "E-score": -0.134}
{"Strand": "TATAAGCA", "E-score": -0.076}
{"Strand": "GGAGGGTA", "E-score": -0.0284}
{"Strand": "GCTCGCCC", "E-score": 0.0351}
{"Strand": "AATCAACG", "E-score": 0.158}
{"Strand": "TCGACAGA", "E-score": 0.136}
{"Strand": "ACCGGATC", "E-score": 0.0424}
{"Strand": "AAGTACGC", "E-score": 0.155}
{"Strand": "GCACGAGA", "E-score": 0.0354}
{"Strand": "AACAAGGG", "E-score": -0.108}
{"Strand": "CACCTCTC", "E-score": -0.105}
{"Strand": "ATTGCCCG", "E-score": 0.0783}
{"Strand": "ATTACGCG", "E-score": 0.312}
{"data": "Block 4", "target": "ABI1, truncated, D143A, DHFR fusion (Arabidopsis thaliana)", "method": "DHFR PCA, deep sequencing", "medium": "yeast", "notes": "methotrexate growth selection, single substitutions", "with": "(+)-ABA 0.39 µM", "relative to": "wild-type fitted maximum", "direction": "higher = stronger binding", "parent": "PYL1, truncated, DHFR fusion (Arabidopsis thaliana); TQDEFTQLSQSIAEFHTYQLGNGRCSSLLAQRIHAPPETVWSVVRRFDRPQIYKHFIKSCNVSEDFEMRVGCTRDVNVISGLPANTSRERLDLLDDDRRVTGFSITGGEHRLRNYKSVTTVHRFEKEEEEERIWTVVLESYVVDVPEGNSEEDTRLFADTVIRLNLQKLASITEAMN"}
{"Variant": "V121L", "relative binding score [%]": 1.46}
{"Variant": "D75V", "relative binding score [%]": 67.7}
{"Variant": "I57E", "relative binding score [%]": -3.66}
{"Variant": "P50C", "relative binding score [%]": -11.1}
{"Variant": "D95F", "relative binding score [%]": -7.81}
{"Variant": "I79A", "relative binding score [%]": 24.7}
{"Variant": "N114W", "relative binding score [%]": -17.1}
{"Variant": "H110A", "relative binding score [%]": 13.6}
{"Variant": "S104D", "relative binding score [%]": -13.7}
{"Variant": "R99C", "relative binding score [%]": 30.9}
{"Variant": "V44G", "relative binding score [%]": -9.93}
{"data": "Block 5", "target": "Phosphate system positive regulatory protein PHO4, full length, GST-tagged (PHO4, Saccharomyces cerevisiae, UniProt P07270, residues 1-312)", "method": "competition protein-binding microarray", "molecule type": "double-stranded DNA, one strand shown", "medium": "in vitro", "concentration": "2 µM", "notes": "whole 60-bp probe, lowest competitor level", "with": "Cbf1 competitor, 0.05 µM", "direction": "higher = stronger binding", "all sequences stand within": "… GTCTTGATTCGCTTGACGCTGCTG", "Target sequence (chain)": "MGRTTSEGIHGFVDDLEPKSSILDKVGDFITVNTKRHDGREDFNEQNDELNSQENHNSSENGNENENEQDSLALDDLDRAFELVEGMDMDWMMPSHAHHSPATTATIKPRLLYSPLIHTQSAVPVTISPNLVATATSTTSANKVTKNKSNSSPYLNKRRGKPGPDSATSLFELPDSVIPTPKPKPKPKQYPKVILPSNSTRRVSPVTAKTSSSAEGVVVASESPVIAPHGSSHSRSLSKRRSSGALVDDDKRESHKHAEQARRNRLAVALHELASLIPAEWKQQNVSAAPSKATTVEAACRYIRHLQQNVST"}
{"Strand": "CGTCCTAGTGATTGCTCGGTGGGTGCCATGAGGAAG", "fluorescence intensity [a.u.]": 7820}
{"Strand": "AAACATCAAATCCATCACGTGCTTTTTAAAAAATAT", "fluorescence intensity [a.u.]": 15200}
{"Strand": "AAAGCGGTAATTTGCACGGTGGGTGCAGATATCTAT", "fluorescence intensity [a.u.]": 6990}
{"Strand": "CGGGGTTAAGTTTGTCACCAAACTTGCTTGCAGCAG", "fluorescence intensity [a.u.]": 3320}
{"Strand": "CCGCTTGTGCCTACCCACGTGGTGAGCAATCTTCTC", "fluorescence intensity [a.u.]": 21900}
{"Strand": "AAATTACTAAGTTTTCACGTGATTTACCCCGTATGA", "fluorescence intensity [a.u.]": 10800}
{"Strand": "CGCTTGCCTTTAATCCTCGTGCCGATCCACAAAATC", "fluorescence intensity [a.u.]": 9550}
{"Strand": "CGTCCTAGTGATTGTGACGTGGGTGCCATGAGGAAG", "fluorescence intensity [a.u.]": 8020}
{"Strand": "AAGCTGAAGGTGCATTGCATGACGCACTATGTGTGG", "fluorescence intensity [a.u.]": 7710}
{"Strand": "AGGAAGCTGATAAGCAACGTGGTGATGAACAGTATG", "fluorescence intensity [a.u.]": 14500}
{"Strand": "CTTTCCCGATCTTGACGTGTGGGTGTAGCACATTTG", "fluorescence intensity [a.u.]": 7030}
{"Strand": "GACATACAGGAGTGCCACATGCGAAAGCGGAGTGGG", "fluorescence intensity [a.u.]": 10100}
{"Strand": "GTCTTGTCTCATTGTTTGGTGGGTGTCCCCACTTCA", "fluorescence intensity [a.u.]": 4810}
{"Strand": "TCCAAAACACAGGGGCACGTGCATCCTTGTGGCACT", "fluorescence intensity [a.u.]": 18800}
{"Strand": "CTTTCCCGATCTTGTTGTGTGGGTGTAGCACATTTG", "fluorescence intensity [a.u.]": 5260}
{"note": "Some of these lines once more (block 5):"}
{"Strand": "CGTCCTAGTGATTGCTCGGTGGGTGCCATGAGGAAG", "fluorescence intensity [a.u.]": 7820}
{"Strand": "CCGCTTGTGCCTACCCACGTGGTGAGCAATCTTCTC", "fluorescence intensity [a.u.]": 21900}
{"Strand": "AGGAAGCTGATAAGCAACGTGGTGATGAACAGTATG", "fluorescence intensity [a.u.]": 14500}
{"Strand": "AAGCTGAAGGTGCATTGCATGACGCACTATGTGTGG", "fluorescence intensity [a.u.]": 7710}
{"Strand": "AAAGCGGTAATTTGCACGGTGGGTGCAGATATCTAT", "fluorescence intensity [a.u.]": 6990}
